Measured values collected from several papers.
Each numbered part is a random draw from the data of one study; scales do not carry over between parts. Substitutions count along the parent as printed.
Chain of UniProt Q16513 (whole entry, looked up): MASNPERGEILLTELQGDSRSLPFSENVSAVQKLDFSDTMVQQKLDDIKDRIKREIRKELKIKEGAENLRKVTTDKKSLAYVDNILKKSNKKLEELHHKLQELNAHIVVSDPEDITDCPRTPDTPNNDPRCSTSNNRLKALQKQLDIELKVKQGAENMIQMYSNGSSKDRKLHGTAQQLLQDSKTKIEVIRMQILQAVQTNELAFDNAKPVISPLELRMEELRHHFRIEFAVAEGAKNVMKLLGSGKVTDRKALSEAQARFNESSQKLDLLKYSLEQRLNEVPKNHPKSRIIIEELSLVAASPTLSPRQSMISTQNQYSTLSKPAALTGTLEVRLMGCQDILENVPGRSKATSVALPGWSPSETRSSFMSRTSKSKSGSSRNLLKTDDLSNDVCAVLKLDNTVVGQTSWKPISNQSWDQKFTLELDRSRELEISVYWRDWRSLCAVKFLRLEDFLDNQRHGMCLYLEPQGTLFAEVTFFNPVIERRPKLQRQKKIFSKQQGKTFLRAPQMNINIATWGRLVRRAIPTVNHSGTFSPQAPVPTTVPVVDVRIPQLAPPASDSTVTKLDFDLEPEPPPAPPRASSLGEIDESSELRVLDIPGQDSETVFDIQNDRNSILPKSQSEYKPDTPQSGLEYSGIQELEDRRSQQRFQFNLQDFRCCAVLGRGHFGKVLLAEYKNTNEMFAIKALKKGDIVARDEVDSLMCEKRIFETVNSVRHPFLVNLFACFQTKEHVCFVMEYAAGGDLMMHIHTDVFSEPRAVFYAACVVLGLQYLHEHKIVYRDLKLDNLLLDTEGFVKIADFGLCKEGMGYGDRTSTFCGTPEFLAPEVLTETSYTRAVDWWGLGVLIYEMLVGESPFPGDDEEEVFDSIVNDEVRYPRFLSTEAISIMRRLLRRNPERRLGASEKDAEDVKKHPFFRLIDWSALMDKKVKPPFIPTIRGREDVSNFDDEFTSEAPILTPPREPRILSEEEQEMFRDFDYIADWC
Chain of UniProt Q7KZI7 (whole entry, looked up): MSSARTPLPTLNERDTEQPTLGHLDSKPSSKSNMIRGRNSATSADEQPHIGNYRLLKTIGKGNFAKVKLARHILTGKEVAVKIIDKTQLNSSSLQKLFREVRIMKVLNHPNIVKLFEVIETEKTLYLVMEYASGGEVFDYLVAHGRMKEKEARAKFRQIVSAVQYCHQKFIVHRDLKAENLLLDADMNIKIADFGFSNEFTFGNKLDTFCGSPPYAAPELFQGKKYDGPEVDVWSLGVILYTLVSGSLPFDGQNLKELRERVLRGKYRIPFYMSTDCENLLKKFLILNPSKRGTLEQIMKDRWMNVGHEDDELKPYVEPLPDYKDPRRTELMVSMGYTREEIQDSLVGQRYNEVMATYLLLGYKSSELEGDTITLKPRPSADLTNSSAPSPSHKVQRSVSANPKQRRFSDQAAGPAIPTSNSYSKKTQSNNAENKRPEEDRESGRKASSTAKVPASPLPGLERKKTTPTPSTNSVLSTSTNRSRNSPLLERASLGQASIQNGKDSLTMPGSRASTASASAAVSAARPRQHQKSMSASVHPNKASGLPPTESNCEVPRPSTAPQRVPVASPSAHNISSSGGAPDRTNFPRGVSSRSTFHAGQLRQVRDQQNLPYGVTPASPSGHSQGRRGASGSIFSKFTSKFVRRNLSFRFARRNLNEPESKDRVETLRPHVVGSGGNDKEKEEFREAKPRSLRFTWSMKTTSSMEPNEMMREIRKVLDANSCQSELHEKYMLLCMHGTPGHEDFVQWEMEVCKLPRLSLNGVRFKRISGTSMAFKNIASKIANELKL
Chain of UniProt Q8WXR4 (whole entry, looked up): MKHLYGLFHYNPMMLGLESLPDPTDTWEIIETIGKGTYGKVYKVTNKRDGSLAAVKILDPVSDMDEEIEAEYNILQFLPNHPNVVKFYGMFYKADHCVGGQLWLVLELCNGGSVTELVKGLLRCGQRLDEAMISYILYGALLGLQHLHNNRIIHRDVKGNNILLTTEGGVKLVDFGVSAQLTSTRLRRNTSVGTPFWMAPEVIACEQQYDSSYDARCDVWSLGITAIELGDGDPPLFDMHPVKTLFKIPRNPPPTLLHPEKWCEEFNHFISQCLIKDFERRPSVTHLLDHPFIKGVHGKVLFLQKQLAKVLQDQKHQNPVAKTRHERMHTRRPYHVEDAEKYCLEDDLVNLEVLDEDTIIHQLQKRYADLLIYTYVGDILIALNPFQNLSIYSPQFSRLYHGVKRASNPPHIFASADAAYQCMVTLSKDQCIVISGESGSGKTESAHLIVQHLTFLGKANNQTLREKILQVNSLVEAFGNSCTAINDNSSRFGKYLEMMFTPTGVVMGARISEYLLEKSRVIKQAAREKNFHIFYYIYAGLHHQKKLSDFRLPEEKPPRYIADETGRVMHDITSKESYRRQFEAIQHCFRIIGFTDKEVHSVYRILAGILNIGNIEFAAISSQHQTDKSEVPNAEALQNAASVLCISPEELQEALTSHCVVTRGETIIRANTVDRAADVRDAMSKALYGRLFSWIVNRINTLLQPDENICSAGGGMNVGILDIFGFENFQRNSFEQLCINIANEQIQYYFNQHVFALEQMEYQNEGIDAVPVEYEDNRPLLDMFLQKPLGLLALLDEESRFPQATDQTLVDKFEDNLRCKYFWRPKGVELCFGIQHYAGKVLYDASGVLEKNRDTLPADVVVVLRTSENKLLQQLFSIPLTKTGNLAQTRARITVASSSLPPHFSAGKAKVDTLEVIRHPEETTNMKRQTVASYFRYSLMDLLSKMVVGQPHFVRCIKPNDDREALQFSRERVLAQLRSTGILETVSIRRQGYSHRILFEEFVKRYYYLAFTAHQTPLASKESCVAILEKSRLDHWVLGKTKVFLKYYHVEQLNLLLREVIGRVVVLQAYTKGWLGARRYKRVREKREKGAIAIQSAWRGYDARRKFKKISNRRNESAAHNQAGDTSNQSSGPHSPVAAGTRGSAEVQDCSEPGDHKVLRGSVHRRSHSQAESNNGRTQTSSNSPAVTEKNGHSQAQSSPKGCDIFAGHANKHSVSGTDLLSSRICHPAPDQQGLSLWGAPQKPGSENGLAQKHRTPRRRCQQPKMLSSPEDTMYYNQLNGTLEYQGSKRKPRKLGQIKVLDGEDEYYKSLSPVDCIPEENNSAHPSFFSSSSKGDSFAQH
Chain of UniProt Q9UM73 (whole entry, unmodified, looked up): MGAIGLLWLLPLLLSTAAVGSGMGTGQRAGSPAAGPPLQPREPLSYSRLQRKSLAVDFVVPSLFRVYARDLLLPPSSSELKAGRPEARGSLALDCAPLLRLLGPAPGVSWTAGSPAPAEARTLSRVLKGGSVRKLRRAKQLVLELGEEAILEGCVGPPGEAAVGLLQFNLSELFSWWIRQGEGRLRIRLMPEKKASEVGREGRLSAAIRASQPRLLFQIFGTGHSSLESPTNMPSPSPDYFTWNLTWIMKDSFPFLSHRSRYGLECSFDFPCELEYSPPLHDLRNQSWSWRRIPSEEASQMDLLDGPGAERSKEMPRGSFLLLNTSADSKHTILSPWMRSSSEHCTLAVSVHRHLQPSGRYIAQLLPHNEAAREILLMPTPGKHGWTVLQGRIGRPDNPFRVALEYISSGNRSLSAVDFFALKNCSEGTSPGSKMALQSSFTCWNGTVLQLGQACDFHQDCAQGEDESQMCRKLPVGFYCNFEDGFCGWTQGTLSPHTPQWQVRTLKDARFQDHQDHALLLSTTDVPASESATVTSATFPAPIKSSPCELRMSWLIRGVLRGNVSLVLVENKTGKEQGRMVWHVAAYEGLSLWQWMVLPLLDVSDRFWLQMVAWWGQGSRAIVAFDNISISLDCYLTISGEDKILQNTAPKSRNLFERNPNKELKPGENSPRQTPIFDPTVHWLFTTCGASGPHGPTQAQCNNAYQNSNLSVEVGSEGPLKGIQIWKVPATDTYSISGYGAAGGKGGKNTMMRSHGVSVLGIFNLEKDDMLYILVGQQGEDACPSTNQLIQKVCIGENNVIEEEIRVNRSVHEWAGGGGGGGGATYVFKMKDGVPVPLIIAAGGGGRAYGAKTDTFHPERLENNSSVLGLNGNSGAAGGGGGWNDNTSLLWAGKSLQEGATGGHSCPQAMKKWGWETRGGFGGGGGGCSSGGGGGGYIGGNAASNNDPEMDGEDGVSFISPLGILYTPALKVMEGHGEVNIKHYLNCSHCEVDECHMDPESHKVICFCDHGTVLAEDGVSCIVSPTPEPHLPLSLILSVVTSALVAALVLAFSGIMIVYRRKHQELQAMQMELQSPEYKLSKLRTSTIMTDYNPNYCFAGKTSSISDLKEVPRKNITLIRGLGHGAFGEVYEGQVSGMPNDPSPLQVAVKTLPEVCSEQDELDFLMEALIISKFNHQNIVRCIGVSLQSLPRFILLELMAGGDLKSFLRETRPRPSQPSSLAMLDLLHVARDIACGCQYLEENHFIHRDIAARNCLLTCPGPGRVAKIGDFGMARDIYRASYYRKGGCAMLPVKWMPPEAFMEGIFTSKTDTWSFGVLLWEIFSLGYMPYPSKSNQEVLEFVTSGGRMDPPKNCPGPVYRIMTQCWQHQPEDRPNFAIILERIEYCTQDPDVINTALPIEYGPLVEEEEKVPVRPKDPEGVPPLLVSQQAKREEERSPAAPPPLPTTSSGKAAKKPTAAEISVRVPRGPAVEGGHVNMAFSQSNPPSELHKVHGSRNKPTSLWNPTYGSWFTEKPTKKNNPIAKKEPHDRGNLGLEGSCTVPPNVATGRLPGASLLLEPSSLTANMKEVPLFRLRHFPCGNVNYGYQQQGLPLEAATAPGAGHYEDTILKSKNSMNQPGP
Chain of UniProt P51817 (whole entry, looked up): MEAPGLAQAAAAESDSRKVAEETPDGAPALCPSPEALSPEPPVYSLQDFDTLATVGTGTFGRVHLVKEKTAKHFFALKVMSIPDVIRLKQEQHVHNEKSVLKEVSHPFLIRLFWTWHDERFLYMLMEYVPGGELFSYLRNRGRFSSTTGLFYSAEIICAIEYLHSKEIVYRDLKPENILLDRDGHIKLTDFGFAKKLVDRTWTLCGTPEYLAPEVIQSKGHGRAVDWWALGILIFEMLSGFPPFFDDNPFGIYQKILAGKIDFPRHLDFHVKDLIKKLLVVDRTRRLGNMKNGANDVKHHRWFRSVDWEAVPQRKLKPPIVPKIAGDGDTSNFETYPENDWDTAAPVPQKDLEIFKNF

Series 1 — read-out: enzyme activity; action: inhibitor; concentration: 0.5 µM; baseline: control
SMILES: NC(=O)c1ccc(-c2nc(-c3ccc4c(c3)OCCO4)c(-c3ccccn3)[nH]2)cc1
target	remaining activity [%]
MET (Homo sapiens, UniProt P08581)	88.3
MARK2 (Homo sapiens, UniProt Q7KZI7)	97.1
PRKG2 (Homo sapiens, UniProt Q13237)	81.1
GRK4 (Homo sapiens, UniProt P32298)	105
CAMK4 (Homo sapiens, UniProt Q16566)	101
MAPK11 (Homo sapiens, UniProt Q15759)	95.4

Series 2 — target: CCND1, cyclin fold, Cln2 fusion (human); method: yeast growth competition, sequencing; sample: yeast; notes: weak parent motif; baseline: not given; direction: higher = stronger binding
Parent: RB1 docking peptide (human); PKPLKKLRFDIEG; partner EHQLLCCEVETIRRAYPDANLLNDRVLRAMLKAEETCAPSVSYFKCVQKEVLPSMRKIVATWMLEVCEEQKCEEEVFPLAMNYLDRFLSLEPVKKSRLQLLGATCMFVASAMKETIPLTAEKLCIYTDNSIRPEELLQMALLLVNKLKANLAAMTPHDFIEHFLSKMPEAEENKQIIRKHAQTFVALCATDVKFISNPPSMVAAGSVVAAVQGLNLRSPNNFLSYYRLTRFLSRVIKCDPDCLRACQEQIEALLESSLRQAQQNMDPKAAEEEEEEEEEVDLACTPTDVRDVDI
Change	normalised enrichment score
PKPLKKLRQDIEG [F9Q]	0.311
PKPLSKLRFDIEG [K5S]	0.381
PKPLKKLRFDIEI [G13I]	-0.23
PKPLKKLRFDIEV [G13V]	-0.0992
PKPLKKLRFDAEG [I11A]	0.401
PKPLKKLRFDIET [G13T]	-0.612
PKPLKKLRFDIWG [E12W]	0.45
PKPLKKLRFDKEG [I11K]	0.0367

Series 3 — method: competition with immobilised ligand; concentration: 1 µM
Compound: O=S(=O)(NC1CCC(c2cc(F)ccc2F)(S(=O)(=O)c2ccc(Cl)cc2)CC1)C(F)(F)F (centres unmarked)
target	test	remaining binding [%]
DDR2 (Homo sapiens, UniProt Q16832)	cell-free assay	100
PAK1 (Homo sapiens, UniProt Q13153)	cell-free assay	93
FER (Homo sapiens, UniProt P16591)	cell-free assay	100
Myosin-IIIb (MYO3B, Homo sapiens, UniProt Q8WXR4)	binding	100
LTK (Homo sapiens, UniProt P29376)	cell-free assay	100
ALK (Homo sapiens, UniProt Q9UM73, C1156Y)	cell-free assay	100
EPHB2 (Homo sapiens, UniProt P29323)	cell-free assay	100
RIOK3 (Homo sapiens, UniProt O14730)	cell-free assay	83
FLT3 (Homo sapiens, UniProt P36888)	cell-free assay	100
PRKX (Homo sapiens, UniProt P51817)	cell-free assay	100
PKN2 (Homo sapiens, UniProt Q16513)	cell-free assay	100
FLT3 (Homo sapiens, UniProt P36888, D835Y)	cell-free assay	98
KIT (Homo sapiens, UniProt P10721, D816H)	cell-free assay	71

Series 4 — method: DHFR PCA, dose-response; sample: yeast; notes: Hill fit, mean, not affinity; with: (+)-ABA, dose series; direction: lower = more sensitive
Target: ABI1, truncated, D143A, DHFR fusion (Arabidopsis thaliana, UniProt P49597)
Parent: PYL1, truncated, DHFR fusion (Arabidopsis thaliana, UniProt Q8VZS8); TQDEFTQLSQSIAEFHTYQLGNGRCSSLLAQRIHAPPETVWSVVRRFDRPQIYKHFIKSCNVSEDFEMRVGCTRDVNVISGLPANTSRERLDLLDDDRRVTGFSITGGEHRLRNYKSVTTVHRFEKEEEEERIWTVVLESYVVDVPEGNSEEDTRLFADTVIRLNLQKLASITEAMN
Change	ABA EC50 [µM]
R98G	30
Q2R	1.59
K116L	421
G21Q	2.04
S11V	1.44
D3F	9.36
D144L	94.2
A175D	1.93

A few entries again (series 2):
Change	normalised enrichment score
PKPLKKLRFDIET [G13T]	-0.612
PKPLKKLRFDIWG [E12W]	0.45
PKPLKKLRFDAEG [I11A]	0.401
